Experimental data pooled from the literature.
± marks the error that the study gave.
Sequence of UniProt P08684 (whole entry, looked up): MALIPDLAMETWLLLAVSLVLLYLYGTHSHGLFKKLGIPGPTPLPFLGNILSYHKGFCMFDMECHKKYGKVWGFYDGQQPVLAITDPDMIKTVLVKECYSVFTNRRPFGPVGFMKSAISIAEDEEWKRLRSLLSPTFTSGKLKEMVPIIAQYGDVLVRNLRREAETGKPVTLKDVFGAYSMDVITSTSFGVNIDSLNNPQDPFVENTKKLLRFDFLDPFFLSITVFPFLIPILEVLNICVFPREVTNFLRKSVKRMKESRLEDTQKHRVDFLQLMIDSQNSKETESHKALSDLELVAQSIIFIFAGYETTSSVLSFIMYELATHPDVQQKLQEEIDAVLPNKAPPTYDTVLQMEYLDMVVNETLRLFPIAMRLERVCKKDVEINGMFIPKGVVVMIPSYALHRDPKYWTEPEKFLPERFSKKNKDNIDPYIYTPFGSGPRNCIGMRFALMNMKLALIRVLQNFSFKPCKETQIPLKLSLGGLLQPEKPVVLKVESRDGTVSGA

CN1CC[C@]23c4c5ccc(O)c4O[C@H]2[C@@H](O[C@@H]2O[C@H](C(=O)O)[C@@H](O)[C@H](O)[C@H]2O)C=C[C@H]3[C@H]1C5  Papp (MDCK-MDR1; 100 min, added: cyclosporine 10 µM): 2.71 ± 0.04 ×10⁻⁶ cm/s
CN[C@@](C)(C[18F])C(=O)O  tracer uptake (SK-OV-3 tumour model; host not given, liver; 30 min, tumour-bearing): 4 %ID/g
N#Cc1ccc(-c2ccc(-c3cccs3)s2)cc1F  inhibition (Salmonella enterica; sodium azide mutagenicity; TA1535; 10 µM, 48 h, added: sodium azide 2 µg/plate co-exposure): 93%
C[C@H]1CNCCc2ccc(Cl)cc21  plasma concentration (Sprague-Dawley rat, male, plasma; subcutaneous, 3 mg/kg, 60 min): 63.5 ± 4.38 ng/mL
OCc1ncc2n1-c1ccc(Cl)cc1C(c1ccccc1F)=NC2  metabolic AUC ratio (Cytochrome P450 3A4 (CYP3A4, Homo sapiens, UniProt P08684); human; oral, 25 mg once daily, day -1, molecular-weight corrected, geometric mean, added: midazolam 7.5 mg; relative to: compound AUC over midazolam AUC): 0.33
N[C@]1(c2ccccc2Cl)CC[C@H](O)CC1=O  dose-normalized Cmax (male CD-1 mice, plasma; intraperitoneal, 5 mg/kg): 133 ± 4.2 ng/mL per mg/kg
CSCC[C@@H]1NC(=O)[C@H](CC(=O)O)NC(=O)CNC(=O)[C@H](CCCNC(=N)N)NC(=O)[C@H](C)NC(=O)[C@H](CCC(=O)O)NC(=O)[C@H](CCCNC(=N)N)NC(=O)[C@@H]2CSSC[C@@H]3NC(=O)[C@H](CO)NC(=O)[C@H]([C@@H](C)O)NC(=O)[C@@H]4CCCN4C(=O)[C@H](C)NC(=O)[C@H](Cc4c[nH]c5ccccc45)NC(=O)[C@H](CC(=O)O)NC(=O)CNC(=O)[C@H](CCCNC(=N)N)NC(=O)CNC(=O)[C@H](CCC(N)=O)NC(=O)[C@@H]4CCCN4C(=O)[C@@H](NC(=O)CNC(=O)C(C)F)CSSC[C@H](NC(=O)CNC(=O)[C@H](C)NC(=O)[C@H](CC(C)C)NC(=O)[C@H](CSSC[C@@H](C(=O)NCC(N)=O)NC(=O)[C@H]([C@@H](C)O)NC(=O)[C@H](CCCNC(=N)N)NC(=O)[C@@H]4CCCN4C1=O)NC(=O)[C@H](CC(=O)O)NC(=O)[C@H](CO)NC(=O)[C@H](CC(=O)O)NC(=O)[C@H](CCC(N)=O)NC(=O)[C@H](CO)NC3=O)C(=O)N[C@@H](C(C)C)C(=O)N2 (stereo partly drawn) [fluorine-18 labelled]  tissue uptake (nude mice U-87 MG xenograft, skin; intravenous, 2.5 h): 0.4 ± 0.1 %ID/g
[123I]c1cncc(OC[C@@H]2CCN2)c1  tissue/plasma ratio (SPECT; human, thalamus; intravenous bolus plus infusion, 8.1 mCi; relative to: plasma): 35.8
CCCCCc1cc(O)c2c(c1)OC(C)(C)[C@@H]1CCC(C)=C[C@@H]21  ED50 (catalepsy (ring immobility); ICR mice, male; intraperitoneal): 3.85 mg/kg
N=C(N)c1ccc(-c2ccc(-c3cccs3)o2)c(F)c1  inhibition (Salmonella enterica; sodium azide mutagenicity; TA1535; 10 µM, 48 h, added: sodium azide 2 µg/plate co-exposure): 103%
O=[N+]([O-])NC1=NCCN1Cc1ccc(Cl)nc1  LC50 (Folsomia candida; survival, OECD 232; LUFA 2.2 soil; 28 days): 0.55 mg/kg dry soil
COc1cccc2c1C(=O)c1c(O)c3c(c(O)c1C2=O)C[C@@](O)(C(=O)CO)C[C@@H]3O[C@H]1C[C@H](NC(=O)[C@H](CC(C)C)NC(=O)[C@H](C)NC(=O)[C@H](CC(C)C)NC(=O)CCNC(=O)CCC(=O)O)[C@H](O)[C@H](C)O1  Cmax (mouse, E0771 tumour-bearing, tumor; intravenous, 92 µmol/kg): 56.5 µM
CC[C@@H]1CN2CCc3c([nH]c4cccc(OC)c34)[C@H]2C[C@@H]1/C(=C\OC)C(=O)OC  IC50 (Cytochrome P450 2C9 (CYP2C9, Homo sapiens, UniProt P11712); enzyme activity, inhibitor; human liver microsomes; added: diclofenac 4'-hydroxylation): > 45000 nM
CC(C)c1ccc2c(c1)CC[C@H]1[C@](C)(CN)CCC[C@]21C  IC50 (1205Lu; cell growth or viability, MTS; 48 h): 1630 nM
COc1ccc2c(c1)[C@]13CCCC[C@@H]1[C@H](C2)N(C)CC3  AUC(0-inf) (Wistar rat, both sexes, plasma; oral, 5 mg/kg, 2 h after pretreatment, added: single quinidine 2.5 mg/kg): 128 ± 12.2 ng·h/mL

Some of these lines once more:
N#Cc1ccc(-c2ccc(-c3cccs3)s2)cc1F  inhibition (Salmonella enterica; sodium azide mutagenicity; TA1535; 10 µM, 48 h, added: sodium azide 2 µg/plate co-exposure): 93%
C[C@H]1CNCCc2ccc(Cl)cc21  plasma concentration (Sprague-Dawley rat, male, plasma; subcutaneous, 3 mg/kg, 60 min): 63.5 ± 4.38 ng/mL
